{"data": "Experimental data from different studies", "organism": "Staphylococcus aureus", "note": "Protocols differ between the studies behind these lines. Values joined by “and” are separate records of one study, mostly repeats; a detail may differ."}
{"SMILES": "CO/N=C(\\C(=O)N[C@@H]1C(=O)N2C(C(=O)O)=C(CSC(=O)c3ccco3)CS[C@H]12)c1csc(N)n1", "test system": "CAAS-2019-CAAS-2019-11 clinical drug-resistant isolate, PBS", "measurement": "MBC", "result": "8 µg/mL"}
{"SMILES": "C=CC[C@@H]1c2ccc(OC)c(OC)c2CN2CCc3cc4c(cc3[C@H]12)OCO4", "test system": "P2rx7 A312V/A312V mice, skin wound infection", "setting": "dose not given, day 6", "how to read": "relative to: day 0", "measurement": "relative wound size", "result": "0.8 and 0.44 and 0.59 and 0.37"}
{"SMILES": "CC(C)C[C@H](NC(=O)CNC(=O)CNC(=O)CNC(=O)[C@H](Cc1ccc(O)cc1)NC(=O)[C@H](CC(C)C)NC(=O)[C@@H](NC(=O)CNC(=O)[C@H](Cc1ccc(O)cc1)NC(=O)[C@H](CCCCN)NC(=O)[C@H](CC(N)=O)NC(=O)[C@@H](NC(=O)[C@H](CCCCN)NC(=O)[C@H](Cc1c[nH]c2ccccc12)NC(=O)CN)[C@@H](C)O)[C@@H](C)O)C(=O)N[C@@H](CCCCN)C(=O)N[C@@H](CCCCN)C(=O)N[C@@H](CC(C)C)C(=O)N[C@@H](CC(C)C)C(=O)N[C@@H](CC(C)C)C(=O)N[C@@H](CC(C)C)C(=O)N[C@@H](CC(C)C)C(=O)N[C@@H](CCCCN)C(=O)N[C@@H](CCCCN)C(=O)N[C@@H](CC(C)C)C(=O)NCC(=O)O", "test system": "ATCC 25923", "setting": "added: 6 µM NH4Cl", "measurement": "MIC", "result": "16 µg/mL"}
{"SMILES": "CC[C@H](C)[C@H](NC(=O)[C@H](C)NC(=O)[C@H](CCCCN)NC(=O)[C@H](CC(C)C)NC(=O)[C@H](C)NC(=O)[C@@H](NC(=O)[C@H](Cc1c[nH]cn1)NC(=O)[C@H](CC(C)C)NC(=O)[C@@H](NC(=O)[C@@H](NC(=O)[C@H](CCCCN)NC(=O)[C@H](C)NC(=O)[C@H](C)NC(=O)[C@H](CO)NC(=O)[C@H](CCCCN)NC(=O)[C@H](Cc1ccccc1)NC(=O)[C@@H](NC(=O)[C@H](CCCCN)NC(=O)[C@H](CC(C)C)NC(=O)[C@H](Cc1ccccc1)NC(=O)[C@H](CO)NC(=O)[C@H](CCCCN)NC(=O)[C@H](Cc1c[nH]c2ccccc12)NC(=O)[C@H](CCCCN)NC(C)=O)[C@@H](C)O)[C@@H](C)O)C(C)C)[C@@H](C)O)C(=O)N[C@@H](CO)C(=O)N[C@@H](CO)C(N)=O", "test system": "MSSA", "setting": "67 strains", "measurement": "MIC geometric mean", "result": "4.87 µg/mL"}
{"SMILES": "CCCCCCCCCC(=O)N[C@@H](Cc1c[nH]c2ccccc12)C(=O)N[C@H](CC(N)=O)C(=O)N[C@@H](CC(=O)O)C(=O)N[C@@H]1C(=O)NCC(=O)N[C@@H](CCCN)C(=O)N[C@@H](CC(=O)O)C(=O)N[C@H](C)C(=O)N[C@@H](CC(=O)O)C(=O)NCC(=O)N[C@H](CO)C(=O)N[C@@H]([C@H](C)CC(=O)O)C(=O)N[C@@H](CC(=O)c2ccccc2N)C(=O)O[C@@H]1C", "assay": "broth microdilution", "test system": "BR-VRSA strain 880, Mueller-Hinton broth, Mg2+ 10 mg/L", "setting": "16 h, added: Ca2+ 1.0 mM", "measurement": "MIC", "result": "0.5 µg/mL"}
{"SMILES": "Cc1c2c(nn1C)CSCc1cc(n(C)n1)CSc1cc(c3ccccc3c1)OCCCc1c(C(=O)O)n(C)c3c-2c(Cl)ccc13", "assay": "label-free proteomics, item: katA", "test system": "SA113", "setting": "concentration not given", "how to read": "relative to: untreated", "measurement": "protein level fold change", "result": 5.78}
{"SMILES": "OB(O)c1csc2ccccc12", "assay": "crystal violet", "test system": "USA300 wild type", "setting": "100 µM", "how to read": "relative to: wild type untreated", "measurement": "biofilm formation", "result": "27.4% and 24.1% and 20.2%"}
{"SMILES": "CC(=O)NC[C@H]1CN(c2ccc(N3CCOCC3)c(F)c2)C(=O)O1", "test system": "MRSA, 10 isolates", "setting": "pH 7.0", "measurement": "MIC50", "result": "1 µg/mL"}
